{"data": "Measurements collected from several papers", "target": "Fibroblast growth factor receptor 4 (FGFR4, Homo sapiens, UniProt P22455)", "note": "Protocols differ between the studies behind these lines. Several values in a cell are separate wells, animals, samples, runs or records."}
{"Structure (SMILES)": "COc1ccc(C(=O)/C=C/c2ccccc2-c2c[nH]c3ccc(C#N)cc23)c(O)c1", "assay": "enzyme activity, inhibitor", "conditions": "20 µM", "measurement": "inhibition", "result": "8%"}
{"Structure (SMILES)": "NC(=O)C[C@H]1CCc2sc3ncnc(O[C@H]4CC[C@H](N5CCOCC5)CC4)c3c21", "assay": "enzyme activity, inhibitor", "conditions": "10 µM", "measurement": "inhibition", "result": "10%"}
{"Structure (SMILES)": "CN1CCN(c2ccc(Nc3ncc(Cl)c(Nc4ccccc4P(C)(C)=O)n3)cc2Br)CC1", "assay": "enzyme activity, inhibitor", "conditions": "0.1 µM", "measurement": "inhibition", "result": "30.1%"}
{"Structure (SMILES)": "CNC(=O)C1CCN(c2cc(C)c(F)cc2NC(=O)c2ccc(-c3cc(O)ccc3C)c(C)c2)CC1", "assay": "binding, competition with immobilised ligand", "conditions": "1 µM", "measurement": "remaining binding", "result": "100%"}
{"Structure (SMILES)": "COc1c(OCCCN2CCOCC2)ccc2c1N=C(NC(=O)c1cnc(N)nc1)N1CCN=C21", "assay": "kinase activity, inhibitor", "conditions": "1 µM", "scale": "relative to: untreated control", "measurement": "remaining activity", "result": "94%"}
{"Structure (SMILES)": "CCN1CCN(Cc2ccc(C(=O)Nc3ccc(C)c(NCc4cnc5[nH]ccc5c4OC)c3)cc2C(F)(F)F)CC1", "assay": "binding, competition with immobilised ligand", "conditions": "1 µM", "measurement": "remaining binding", "result": "15%"}
{"Structure (SMILES)": "COc1ccc(NC(=O)Nc2ccc3c(c2)C(=O)N(C(C)CO)CC(C)C(CN(C)Cc2ccc4c(c2)OCO4)O3)cc1 (stereo not shown)", "assay": "kinase activity", "conditions": "0.03 µM", "scale": "relative to: control", "measurement": "remaining activity", "result": "107%"}
{"Structure (SMILES)": "C=CC(=O)N1CCc2ccc(-n3c(=O)ccc4cnc5ccc(-c6cnn(C)c6)cc5c43)cc21", "assay": "KINOMEscan", "conditions": "1 µM", "scale": "relative to: DMSO control", "measurement": "remaining binding", "result": "95%"}
{"Structure (SMILES)": "O=C(Cc1ccc(OCc2ccccc2)cc1)NC1(C(=O)O)CCN(C(=O)c2ccc(-c3cccc(Cl)c3)cc2)CC1", "assay": "enzyme activity, inhibitor", "conditions": "10 µM", "measurement": "activity vs control", "result": "145%"}
{"Structure (SMILES)": "C=CC(=O)N1Cc2nc(-c3cc(-c4cc(Cl)cnc4Cl)c(F)cc3F)n(-c3ccncn3)c2C1", "assay": "cell-free assay", "conditions": "1 µM", "measurement": "inhibition", "result": "4.2%"}
{"Structure (SMILES)": "C=CC(=O)Nc1cccc(-c2cnc3[nH]cc(C(=O)NC(C)(C)C)c3n2)c1", "assay": "kinase activity", "conditions": "0.1 µM", "measurement": "inhibition", "result": "5% and 16%"}
{"Structure (SMILES)": "Cc1cnc2nc1Nc1cccc(c1)COC/C=C/COCc1cc(ccc1OCCN1CCOCC1)N2", "assay": "binding", "conditions": "0.1 µM", "measurement": "remaining binding", "result": "100%"}
{"Structure (SMILES)": "CN1CCN(Cc2ccc(-c3ccc(CO[C@H]4CCC[C@@H]4NC(=O)c4cc(-c5cnn(C)c5)cnc4N)cc3)cc2)CC1", "assay": "enzyme activity, inhibitor", "conditions": "0.1 µM", "measurement": "inhibition", "result": "8%"}
{"Structure (SMILES)": "COCC12C(=O)NC3C4(C(OC)CC1O)C1CC5(O)C(OC)C(O)C(OC(C)=O)(C1C5OC(=O)c1ccccc1)C3(O)C(OC)C24 (stereo not shown)", "assay": "kinase activity, inhibitor, ProQinase kinase profiling", "conditions": "25 µM", "scale": "relative to: control", "measurement": "remaining activity", "result": "99% and 98%"}
{"Structure (SMILES)": "Cc1cccc(O[C@H]2CCC[C@@H](C(C)CNCc3ccncc3)C2)c1 (relative stereo)", "assay": "cell-free assay", "conditions": "1 µM", "measurement": "inhibition", "result": "14%"}
{"Structure (SMILES)": "O=C=[N][Ru-4]123([n]4c5ccc(O)cc5c5c6c(c7cc(F)c[n+]1c7c54)C(=O)NC6=O)[S+]1CC[S+]2CC[S+]3CC1 (stereo not shown)", "assay": "enzyme activity", "conditions": "100 nM, human enzyme, together with: 10 µM ATP", "scale": "relative to: untreated", "measurement": "remaining activity", "result": "98%"}
{"note": "Repeated from above:"}
{"Structure (SMILES)": "CCN1CCN(Cc2ccc(C(=O)Nc3ccc(C)c(NCc4cnc5[nH]ccc5c4OC)c3)cc2C(F)(F)F)CC1", "assay": "binding, competition with immobilised ligand", "conditions": "1 µM", "measurement": "remaining binding", "result": "15%"}
